Measured values gathered from unrelated publications.
Lines come from different studies, so protocols differ. “And” joins repeats or separate records; there may be more than shown. ± gives the spread as reported.
prp N63Q: Ribosomal processing cysteine protease Prp (prp, Staphylococcus aureus, UniProt Q2FXS9, N63Q)
Sequence of UniProt Q13557 (whole entry, looked up): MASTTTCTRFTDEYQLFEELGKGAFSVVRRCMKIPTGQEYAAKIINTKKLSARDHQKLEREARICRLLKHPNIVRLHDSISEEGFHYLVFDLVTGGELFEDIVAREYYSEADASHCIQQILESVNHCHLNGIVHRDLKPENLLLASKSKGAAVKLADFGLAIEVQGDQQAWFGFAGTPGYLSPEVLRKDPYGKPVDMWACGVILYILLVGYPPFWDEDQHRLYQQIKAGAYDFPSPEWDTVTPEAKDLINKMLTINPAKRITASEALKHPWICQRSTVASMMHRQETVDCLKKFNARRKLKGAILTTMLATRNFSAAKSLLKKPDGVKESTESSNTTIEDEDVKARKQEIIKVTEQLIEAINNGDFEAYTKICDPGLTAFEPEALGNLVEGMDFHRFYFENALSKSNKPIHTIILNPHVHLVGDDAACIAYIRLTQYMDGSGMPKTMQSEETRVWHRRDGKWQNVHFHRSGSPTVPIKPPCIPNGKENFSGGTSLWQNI
Sequence of UniProt Q15349 (whole entry, looked up): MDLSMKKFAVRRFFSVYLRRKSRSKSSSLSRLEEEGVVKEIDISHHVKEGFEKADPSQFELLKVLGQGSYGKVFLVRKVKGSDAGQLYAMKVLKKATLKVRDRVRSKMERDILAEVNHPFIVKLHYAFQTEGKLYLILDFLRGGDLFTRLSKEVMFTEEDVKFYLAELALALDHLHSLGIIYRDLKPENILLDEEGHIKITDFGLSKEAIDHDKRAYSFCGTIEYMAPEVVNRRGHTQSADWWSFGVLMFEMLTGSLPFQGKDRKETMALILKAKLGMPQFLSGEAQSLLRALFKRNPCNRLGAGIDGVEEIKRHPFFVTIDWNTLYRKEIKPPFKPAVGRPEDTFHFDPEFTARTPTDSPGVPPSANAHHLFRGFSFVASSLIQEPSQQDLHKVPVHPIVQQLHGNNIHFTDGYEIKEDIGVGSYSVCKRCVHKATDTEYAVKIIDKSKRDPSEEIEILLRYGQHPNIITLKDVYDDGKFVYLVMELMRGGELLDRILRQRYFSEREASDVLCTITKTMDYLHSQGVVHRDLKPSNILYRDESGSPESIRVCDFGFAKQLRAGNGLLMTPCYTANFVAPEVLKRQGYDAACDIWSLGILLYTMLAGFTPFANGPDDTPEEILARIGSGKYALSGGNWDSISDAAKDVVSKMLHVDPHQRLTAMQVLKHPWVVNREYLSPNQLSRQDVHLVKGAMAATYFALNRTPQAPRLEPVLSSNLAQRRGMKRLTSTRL
Sequence of UniProt O00425 (whole entry, looked up): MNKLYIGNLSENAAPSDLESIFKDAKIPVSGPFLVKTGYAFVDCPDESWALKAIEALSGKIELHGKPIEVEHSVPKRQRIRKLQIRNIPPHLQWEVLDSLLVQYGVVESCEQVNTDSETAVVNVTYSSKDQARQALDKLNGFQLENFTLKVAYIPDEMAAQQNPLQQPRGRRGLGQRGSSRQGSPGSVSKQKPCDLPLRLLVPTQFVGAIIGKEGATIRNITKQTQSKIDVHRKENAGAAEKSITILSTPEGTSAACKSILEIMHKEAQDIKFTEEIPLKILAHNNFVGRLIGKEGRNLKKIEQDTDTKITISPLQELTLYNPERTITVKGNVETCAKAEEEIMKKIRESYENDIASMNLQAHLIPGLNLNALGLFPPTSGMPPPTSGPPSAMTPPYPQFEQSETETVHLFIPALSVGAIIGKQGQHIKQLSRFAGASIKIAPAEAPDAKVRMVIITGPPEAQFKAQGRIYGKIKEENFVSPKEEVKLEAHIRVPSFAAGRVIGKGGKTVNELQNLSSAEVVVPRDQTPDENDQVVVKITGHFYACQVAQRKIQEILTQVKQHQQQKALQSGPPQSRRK
Sequence of UniProt O14804 (whole entry, looked up): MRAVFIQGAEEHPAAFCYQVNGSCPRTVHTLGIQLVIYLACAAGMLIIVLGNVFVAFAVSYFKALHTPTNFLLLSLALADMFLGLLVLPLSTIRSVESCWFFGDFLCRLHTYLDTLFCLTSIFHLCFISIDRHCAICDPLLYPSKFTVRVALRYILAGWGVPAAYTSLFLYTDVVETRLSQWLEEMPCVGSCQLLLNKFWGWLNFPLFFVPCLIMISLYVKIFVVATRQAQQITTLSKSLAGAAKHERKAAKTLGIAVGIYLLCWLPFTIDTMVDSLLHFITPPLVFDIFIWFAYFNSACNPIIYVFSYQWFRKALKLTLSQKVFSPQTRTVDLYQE
Sequence of UniProt Q13258 (whole entry, looked up): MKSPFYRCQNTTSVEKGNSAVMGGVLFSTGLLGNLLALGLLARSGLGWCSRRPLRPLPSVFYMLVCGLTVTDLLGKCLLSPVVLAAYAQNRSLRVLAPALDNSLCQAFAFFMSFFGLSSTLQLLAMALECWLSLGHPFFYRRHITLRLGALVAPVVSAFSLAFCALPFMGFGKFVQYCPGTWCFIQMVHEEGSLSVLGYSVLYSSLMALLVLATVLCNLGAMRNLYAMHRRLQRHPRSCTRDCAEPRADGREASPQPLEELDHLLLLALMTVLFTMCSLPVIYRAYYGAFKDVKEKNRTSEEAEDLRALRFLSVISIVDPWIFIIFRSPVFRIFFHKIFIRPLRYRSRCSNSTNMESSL
Sequence of UniProt P35626 (whole entry, looked up): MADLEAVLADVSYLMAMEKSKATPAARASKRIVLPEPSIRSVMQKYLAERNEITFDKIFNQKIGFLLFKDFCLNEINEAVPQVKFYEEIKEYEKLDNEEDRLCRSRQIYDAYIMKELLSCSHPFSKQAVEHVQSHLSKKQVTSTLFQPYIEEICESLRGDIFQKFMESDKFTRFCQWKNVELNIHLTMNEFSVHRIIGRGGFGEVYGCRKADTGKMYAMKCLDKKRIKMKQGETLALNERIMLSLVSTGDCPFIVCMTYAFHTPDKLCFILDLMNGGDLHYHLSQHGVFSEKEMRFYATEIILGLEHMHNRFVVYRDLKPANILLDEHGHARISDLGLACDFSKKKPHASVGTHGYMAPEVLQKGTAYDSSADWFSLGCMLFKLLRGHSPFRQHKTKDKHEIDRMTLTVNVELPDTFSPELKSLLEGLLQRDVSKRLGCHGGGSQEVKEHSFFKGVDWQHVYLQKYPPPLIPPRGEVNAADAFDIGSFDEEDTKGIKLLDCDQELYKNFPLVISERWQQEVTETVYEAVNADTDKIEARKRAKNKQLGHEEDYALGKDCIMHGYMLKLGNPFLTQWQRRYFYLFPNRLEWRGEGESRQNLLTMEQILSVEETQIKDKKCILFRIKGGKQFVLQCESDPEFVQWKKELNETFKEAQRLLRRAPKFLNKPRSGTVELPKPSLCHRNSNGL
Sequence of UniProt P37288 (whole entry, looked up): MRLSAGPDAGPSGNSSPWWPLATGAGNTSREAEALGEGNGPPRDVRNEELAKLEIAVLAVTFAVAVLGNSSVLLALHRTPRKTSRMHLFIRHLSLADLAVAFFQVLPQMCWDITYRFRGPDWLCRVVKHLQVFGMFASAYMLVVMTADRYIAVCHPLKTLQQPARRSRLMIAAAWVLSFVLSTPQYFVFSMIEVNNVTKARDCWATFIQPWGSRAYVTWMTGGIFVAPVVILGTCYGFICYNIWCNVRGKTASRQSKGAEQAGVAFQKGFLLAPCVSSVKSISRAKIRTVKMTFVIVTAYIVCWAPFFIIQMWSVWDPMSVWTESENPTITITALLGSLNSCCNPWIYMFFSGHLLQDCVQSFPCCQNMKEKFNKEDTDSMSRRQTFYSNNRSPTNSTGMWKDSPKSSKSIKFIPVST

Compound | tested on | test | test system | conditions | how to read | measurement | result
COc1ccc(N2C(=O)N(c3c(C)cccc3Cl)Cc3cnc(Nc4ccc(C5CCN(C)CC5)cc4OC)nc32)nc1 | GRK3 (Homo sapiens, UniProt P35626) | kinase activity |  | 0.5 µM |  | inhibition | 2%
CN1CCN(c2cc(-c3ccncc3)c(-c3ccc4ccccc4c3)nn2)CC1 | AVPR1A (Homo sapiens, UniProt P37288) | antagonist, FLIPR |  | 10 µM |  | inhibition | -0.4%
CCCc1ccc(OCC(=O)N(Cc2nc(-c3cccnc3)no2)C(C)C)cc1 | prp N63Q | enzyme activity |  | 10 µM, 21.4 nM enzyme dimer, added: 0.5 µM FITC-labelled peptide substrate |  | inhibition | 21.3 ± 5%
CCCCCCCC[C@H]1O[C@H]1C/C=C/C=C/[C@H](O)CC(=O)NC1=C[C@](C)(CC)OC1=O | Na(+)-translocating NADH-quinone reductase subunit B, whole Na+-NQR complex (nqrB, Vibrio cholerae serotype O1, UniProt Q9KPS2) | ITC |  | concentration not given, 20 °C, wild type, added: ubiquinone-2 50 µM |  | binding stoichiometry | 0.54 ± 0.01
O=C(Nc1cccnn1)N1CCC(=Cc2cccc(Oc3ccc(C(F)(F)F)cn3)c2)CC1 | PTGDR (Homo sapiens, UniProt Q13258) | radioligand binding, inhibitor |  | 50 µM, human, added: [3H]prostaglandin D2 |  | inhibition | 38%
CC#CCn1c(N2CCC[C@@H](N)C2)nc2c1c(=O)n(Cc1nc(C)c3ccccc3n1)c(=O)n2C | prp N63Q | enzyme activity, inhibitor |  | 10 µM, prp 21.4 nM, added: FITC peptide substrate 0.5 µM |  | inhibition | 21.1 ± 10.6%
Oc1ccc2c3c1O[C@H]1[C@@H](O)CC[C@@]4(O)[C@@H](C2)N(CC2CCC2)CC[C@]314 | TAAR5 (Homo sapiens, UniProt O14804) | β-arrestin recruitment, TANGO luminescence |  | concentration not given | relative to: basal luminescence | log2 fold change | 0.495
CC(C)C[C@@H](C=O)NC(=O)[C@H](CC(C)C)NC(=O)[C@H](CC(C)C)NC(=O)OCc1ccccc1 | prp N63Q | enzyme activity, inhibitor |  | 10 µM, prp 21.4 nM, added: FITC peptide substrate 0.5 µM |  | inhibition | -17 ± 10.3%
COc1cc(Nc2ncc(F)c(Nc3ccc4c(n3)NC(=O)C(C)(C)O4)n2)cc(OC)c1OC | RPS6KA2 (Homo sapiens, UniProt Q15349) | KINOMEscan |  | 10 µM, RSK3(Kin.Dom.1-N-terminal) |  | inhibition | 5%
COc1cc2c(Oc3ccc4[nH]c(C)cc4c3F)ccnc2cc1OCC1(N)CC1 |  |  | paediatric recurrent refractory sarcoma | 12 mg |  | grade 1 or 2 bone pain | 0%
CN(C(=O)n1cnc(-c2ccc[n+]([O-])c2)c1)C1CCCCC1 | somatostatin sst3 receptor |  |  | concentration not given |  | inhibition | 18% and 11%
CO[C@H]1C[C@@H]2CC[C@@H](C)[C@@](O)(O2)C(=O)C(=O)N2CCCC[C@H]2C(=O)O[C@H]([C@H](C)C[C@@H]2CC[C@@H](OC(=O)NCCOCCOCCOCCOCCOCCOCCOCCOCCC(=O)N3CCc4cc(Cn5nc(-c6ccc7oc(N)nc7c6)c6c(N)ncnc65)ccc4C3)[C@H](OC)C2)C[C@@H](O)[C@H](C)/C=C(\C)[C@@H](O)[C@@H](OC)C(=O)[C@H](C)C[C@H](C)/C=C/C=C/C=C/1C |  |  | patients with advanced solid tumours | intravenous, 8 mg weekly, grade 3 or higher |  | abdominal pain incidence | 6.3%
CC(=O)NC[C@H]1[C@H](O)[C@H](O)[C@@H]2[C@H](O)C[C@@H](CO)N21 | human placental β-N-acetylglucosaminidase |  |  | 0.00322 µM, run 1, added: p-nitrophenyl GlcNAc |  | inhibition | 30.4%
C[C@H]1CN(c2n[nH]c3nc(N[C@H]4CC[C@H](NS(=O)(=O)CCC(F)(F)F)CC4)ncc23)CCO1 | IGF2BP3 (Homo sapiens, UniProt O00425) | inhibitor, Kinobeads competition profiling |  | 0.16 µM | relative to: vehicle | relative abundance | 1.56
O=C(Nc1cnccc1Cl)N1CCN(Cc2ccc3c(c2)OC(F)(F)O3)CC1 | CAMK2D (Homo sapiens, UniProt Q13557) | enzyme activity, inhibitor |  | 10 µM, added: autocamtide-2 |  | inhibition | 9%
